Published values collected from several papers.
A part holds a random share of what one study measured. Positions count from the first letter of the parent shown.

Set 1 — target: ATF3, bZIP domain (human); method: DHFR protein complementation; matrix: yeast; baseline: wild-type JUN-FOS pair; reading: higher = stronger binding
Notes: single substitutions, most at no-binding floor
Parent: JUN, bZIP domain (human); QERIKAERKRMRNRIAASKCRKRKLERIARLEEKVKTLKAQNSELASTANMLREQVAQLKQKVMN; partner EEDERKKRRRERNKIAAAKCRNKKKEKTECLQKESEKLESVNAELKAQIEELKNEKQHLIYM
Variant	binding fitness [natural log]
L45A	-1
T48H	-0.164
Q55V	-0.286
V56E	-1.49
E32D	-0.271
Q55T	-0.343
A49N	-1.04
E54H	-0.222
E44Q	-0.14
Q55A	-0.248
N42G	-0.431
E32G	-0.485
N42I	-1.11
T37Y	-0.0929
V56W	-1.24
E54G	-0.173

Set 2 — target: CCNB2, cyclin fold, Cln2 fusion (human); method: yeast growth competition, sequencing; matrix: yeast; notes: weak parent motif; baseline: not given; reading: higher = stronger binding
Parent: CDC25A docking peptide (human); PPHRRRLLFACSP
Variant	normalised enrichment score
PPHRRPLLFACSP [R6P]	-0.345
PPHRRRLLFARSP [C11R]	0.113
PPHRRRLLFACSY [P13Y]	0.685
PPNRRRLLFACSP [H3N]	0.42
PPHRRRLLFACHP [S12H]	0.677
PPHRRRLTFACSP [L8T]	0.648
PPHRRRLPFACSP [L8P]	-0.0359
PPHRRALLFACSP [R6A]	0.186
PPHRRRLLFACSG [P13G]	0.776
PPHRRRLLLACSP [F9L]	0.547
GPHRRRLLFACSP [P1G]	0.297
PVHRRRLLFACSP [P2V]	0.615
PPHRRRLLGACSP [F9G]	0.829
PPERRRLLFACSP [H3E]	-0.175
PPHRRRLLNACSP [F9N]	0.413
PPHRRRLLFACSK [P13K]	0.443
PPHRMRLLFACSP [R5M]	0.378

Set 3 — method: RNA Bind-n-Seq; form: RNA; matrix: in vitro; tested at: 365 nM; baseline: no-protein control; reading: higher = stronger binding
Target: RNA binding protein fox-1 homolog 2, RRM domain, GST-SBP tag (RBFOX2, Homo sapiens, UniProt O43251-10, residues 100-194)
Notes: natural RNA segment, single round, ends assumed
Constant ends, left off below: GGGAGUUCUACAGUCCGACGAUC … UGGAAUUCUCGGGUGCCAA
Residues (chain): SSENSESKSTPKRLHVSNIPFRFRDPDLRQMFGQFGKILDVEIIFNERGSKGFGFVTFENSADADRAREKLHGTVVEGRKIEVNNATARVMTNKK
Strand	RBNS enrichment (R)
UCUCUCUCCUGAGAGCAAGCAUUUGUGUCAGCCACAGGAAGCAGAAGUAUUAAGGGAGGAAGUGCUGGUAGCUGCCCUGUGGGGAGACUCCCUAGGAAAGUAACGGGCAC	0.354
GCCAGGCGAUUUGUGUCUAAGGAUACGAUUUUGAACCAUAUGGGCAGUGUACAAAAUAUGAAACAACUGUUUCCACACUUGCACCUGAUCAAGAGCAGUGCUUCUCCAUU	0.252
GGCGGGGAAAUGGCUGUGCGGUGCGGGACGGAAGACUGGAAACCCUCAAAGCAUCUGACUCACCUGCAUGAUCACAAGCUUUCUUUGACGGUUUCUCCCAUCCGUGUUCC	9.86
GCCCCAUCUCCCCAUAGCCUGAGUGAUGAGGUGGCCCCAGAGCUGAUCUCUGCUGCUGUGUCUUUAUCUACCCUUGCUAGCCCCGGCUCUGGUAGACCGUUCUGGAAUGG	0.346
CACAUGAGGGGCCGCUCUUCUGUCCUGUGGAGCUCCUGCCCUGCCAGCUCUCCAUGCUGAGCUGUGGCCAAGGGGAACAGGUGGGAUGUUGCUGGCCGCCUUCAGAAUCG	0.93
CACGUGCCCUCCCUGCCACCCUCCGUCUAGAGCAAGCGGAUGCCCCCCAGCCUGCAGCAGAAGCCUCCACAGUGAGAACUGGACCCAAAGGUAGUGGGGGCCGGUGUGGG	0.984
AAGCAUCAACAUGGAACCAUCUCAGGAAGCCGCAUCGCCUCUUCCGAGGUCCUCACUUCCAGGAGCCUGUCCUUGCAAGAUGCAAUCAUCGUUCCUGCUUUUUCAUUGUC	0.615
UUUUGGGCUUUUAGUUAGCUAAUGAAUGAAUACAUUAGACACUUUUGGGUUUUAGUUGGGAUUUUACAUAGCUUGCAUUUUAAUUCUUUGGUUCUUUGCUGUUUCUAUUA	1.01
CUGCCACGUGUCCCGUGUGCUCCAGUGCCCGUGCCCGUCACCGCCCCUCCACGCCCUCCGUGAGGUUGUCCAGGCUGUGUUCUCUCGCAUGCUUCUCUUCUAUAUAACCC	8.9
CACUUGGGACAGACUAUUUGUAGUGUCUAUAGGACAUGAAGCGUGCAGCUUGGAGAGCAAAGGCACUUCCUCCCACGACCUUACUGCAGUAACCAUACCGAUCAAAUUCC	0.556
CUUUGACAUAACUAGGAUCCAUUAUUUCCCCUGAAGGCUUCUUGUUAGAAAAUAGUACAGUUACAACCAAUAGGAACAACAAAAAGAAAAAGUUUGUGACAUUGUAGUAG	0.545
UUGUAAGACAACAUCAAGCCAUGGAAACUUGGCAGAAGAUUCAAAGCAGCUUAAACAGCACUUUUAAUUAACUCCUAAACAUUACAUGGUGGGACUGUGGAGACUCCGUU	0.221

Set 4 — method: universal PBM; form: double-stranded DNA, one strand shown; matrix: in vitro; tested at: not given; reading: higher = stronger binding
Target: Sal-like protein 4, full length isoform B (SALL4, Homo sapiens, UniProt Q9UJQ4-2, residues 1-616)
Notes: 8-mer, flanks averaged, mean of replicates
Residues (chain): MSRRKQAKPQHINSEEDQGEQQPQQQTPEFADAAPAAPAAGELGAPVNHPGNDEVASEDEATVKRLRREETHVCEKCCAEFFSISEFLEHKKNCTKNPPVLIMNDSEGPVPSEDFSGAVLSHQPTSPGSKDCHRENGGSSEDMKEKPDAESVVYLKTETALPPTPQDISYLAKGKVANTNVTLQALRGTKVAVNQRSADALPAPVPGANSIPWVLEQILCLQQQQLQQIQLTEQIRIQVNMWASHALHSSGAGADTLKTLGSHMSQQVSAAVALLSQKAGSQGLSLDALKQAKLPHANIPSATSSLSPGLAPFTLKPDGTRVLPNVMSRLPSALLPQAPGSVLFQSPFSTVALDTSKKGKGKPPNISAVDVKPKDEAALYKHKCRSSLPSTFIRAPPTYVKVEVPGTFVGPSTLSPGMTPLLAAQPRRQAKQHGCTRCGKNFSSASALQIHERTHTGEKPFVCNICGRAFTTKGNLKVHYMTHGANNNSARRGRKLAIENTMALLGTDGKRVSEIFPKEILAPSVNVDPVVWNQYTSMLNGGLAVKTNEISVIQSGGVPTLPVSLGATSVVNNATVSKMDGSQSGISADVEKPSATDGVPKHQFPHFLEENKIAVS
Strand	E-score
AGTCTCAT	0.141
CGCCTGCA	-0.282
CACACGCA	-0.151
GCTGCTTA	-0.0504
AGTCTGGG	-0.277
ACCGCCGA	-0.28
AAACATGT	0.248
CGCGGACC	-0.299
CTAGATAA	0.167
CTAATCTC	0.0645
AAGGAGCT	-0.115
CCCTCTTC	-0.148
CCCTGGAA	-0.241
TAGCCTGA	-0.0896
CATCAATA	0.338
CACCTTAA	0.127
CTATTAAC	0.231
CAGAGTTC	-0.172
TGAGTCAA	0.0989
ATAGCGTG	0.0634
CTCGCCCA	-0.141
ACTGTACT	-0.0069

Set 5 — method: DHFR PCA, deep sequencing; matrix: yeast; together with: (+)-ABA 4.8 µM; baseline: wild-type fitted maximum; reading: higher = stronger binding
Target: ABI1, truncated, D143A, DHFR fusion (Arabidopsis thaliana)
Notes: methotrexate growth selection, single substitutions
Parent: PYL1, truncated, DHFR fusion (Arabidopsis thaliana); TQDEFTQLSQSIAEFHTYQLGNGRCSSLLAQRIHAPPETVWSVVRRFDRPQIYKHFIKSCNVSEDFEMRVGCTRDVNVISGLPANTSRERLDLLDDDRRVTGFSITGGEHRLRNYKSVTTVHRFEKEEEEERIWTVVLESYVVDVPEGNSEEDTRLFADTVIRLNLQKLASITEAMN; partner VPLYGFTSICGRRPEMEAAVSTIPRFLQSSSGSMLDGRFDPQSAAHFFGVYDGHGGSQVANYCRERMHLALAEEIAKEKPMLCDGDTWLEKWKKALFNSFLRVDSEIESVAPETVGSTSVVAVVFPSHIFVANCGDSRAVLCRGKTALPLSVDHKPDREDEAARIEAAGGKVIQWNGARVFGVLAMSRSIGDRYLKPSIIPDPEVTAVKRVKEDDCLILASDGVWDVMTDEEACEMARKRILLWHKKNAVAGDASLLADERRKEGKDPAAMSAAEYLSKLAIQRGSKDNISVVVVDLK
Variant	relative binding score
P37F	13%
V145M	-3.87%
E130D	82.1%
Q7S	73.4%
L20Q	80.9%
T173I	38%
P83S	26.2%
T86Q	46.1%
E128S	80.5%
F66M	53.5%
G23H	55.7%
D75F	74.9%
S26P	5.6%
E125Q	84.1%
S80F	41.8%
L94M	55.3%

Further values, each from its own experiment
Substance	target	assay	test system	setting	how to read	quantity	value
PhoQ, residues 284 288 289 292 302 303 MLMVEA	PhoP, residues 12 14 15 18 19 IFFTR (Escherichia coli, UniProt P23836)	Sort-seq, item: YFP reporter	E. coli	PhoQ-PhoP variant library, together with: 10 µM Mg2+	baseline: high Mg2+ state, higher = stronger signaling	fold induction	0.819

Excerpt of the above (set 4):
Strand	E-score
AAGGAGCT	-0.115
CCCTCTTC	-0.148
CCCTGGAA	-0.241
TAGCCTGA	-0.0896
CATCAATA	0.338
CACCTTAA	0.127
CTATTAAC	0.231
CAGAGTTC	-0.172
TGAGTCAA	0.0989
ATAGCGTG	0.0634
